Results from different studies.
Compare with care: the assays were run in different laboratories. “And” joins repeats or separate records; there may be more than shown. ± marks the error that the study gave.
CYP3A4: Cytochrome P450 3A4 (CYP3A4, Homo sapiens, UniProt P08684)
Chain of UniProt P08684 (whole entry, looked up): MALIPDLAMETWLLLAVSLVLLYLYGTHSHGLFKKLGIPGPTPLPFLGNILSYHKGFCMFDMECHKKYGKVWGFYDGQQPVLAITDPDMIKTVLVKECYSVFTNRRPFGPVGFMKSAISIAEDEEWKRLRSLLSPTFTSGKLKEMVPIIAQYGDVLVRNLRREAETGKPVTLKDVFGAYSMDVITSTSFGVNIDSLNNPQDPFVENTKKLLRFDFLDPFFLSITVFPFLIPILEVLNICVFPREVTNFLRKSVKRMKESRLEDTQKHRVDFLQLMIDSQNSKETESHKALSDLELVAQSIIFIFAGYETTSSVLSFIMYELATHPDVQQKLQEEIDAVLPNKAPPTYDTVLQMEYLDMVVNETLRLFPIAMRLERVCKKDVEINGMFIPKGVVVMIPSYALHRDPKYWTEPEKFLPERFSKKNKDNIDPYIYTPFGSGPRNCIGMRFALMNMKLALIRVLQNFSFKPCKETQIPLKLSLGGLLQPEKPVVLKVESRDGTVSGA
ABCG2: Broad substrate specificity ATP-binding cassette transporter ABCG2 (ABCG2, Homo sapiens, UniProt Q9UNQ0)
Chain of UniProt Q9UNQ0 (whole entry, looked up): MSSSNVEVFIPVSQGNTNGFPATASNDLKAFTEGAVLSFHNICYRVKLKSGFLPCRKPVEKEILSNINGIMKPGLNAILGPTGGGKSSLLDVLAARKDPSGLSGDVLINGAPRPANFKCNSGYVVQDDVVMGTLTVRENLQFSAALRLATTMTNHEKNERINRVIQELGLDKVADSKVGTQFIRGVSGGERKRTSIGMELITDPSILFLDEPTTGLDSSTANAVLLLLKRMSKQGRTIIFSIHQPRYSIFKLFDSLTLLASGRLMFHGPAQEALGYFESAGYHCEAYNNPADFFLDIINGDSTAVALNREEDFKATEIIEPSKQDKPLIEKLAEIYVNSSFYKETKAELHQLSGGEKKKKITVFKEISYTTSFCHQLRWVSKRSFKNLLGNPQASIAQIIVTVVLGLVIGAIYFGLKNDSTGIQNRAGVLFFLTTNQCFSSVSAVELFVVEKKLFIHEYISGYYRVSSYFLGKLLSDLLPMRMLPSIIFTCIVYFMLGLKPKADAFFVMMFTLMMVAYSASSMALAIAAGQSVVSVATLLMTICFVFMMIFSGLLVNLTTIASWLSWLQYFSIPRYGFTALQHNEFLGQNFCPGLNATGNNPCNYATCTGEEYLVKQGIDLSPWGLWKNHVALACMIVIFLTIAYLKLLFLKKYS
Chain of UniProt Q9Y2K6 (whole entry, looked up): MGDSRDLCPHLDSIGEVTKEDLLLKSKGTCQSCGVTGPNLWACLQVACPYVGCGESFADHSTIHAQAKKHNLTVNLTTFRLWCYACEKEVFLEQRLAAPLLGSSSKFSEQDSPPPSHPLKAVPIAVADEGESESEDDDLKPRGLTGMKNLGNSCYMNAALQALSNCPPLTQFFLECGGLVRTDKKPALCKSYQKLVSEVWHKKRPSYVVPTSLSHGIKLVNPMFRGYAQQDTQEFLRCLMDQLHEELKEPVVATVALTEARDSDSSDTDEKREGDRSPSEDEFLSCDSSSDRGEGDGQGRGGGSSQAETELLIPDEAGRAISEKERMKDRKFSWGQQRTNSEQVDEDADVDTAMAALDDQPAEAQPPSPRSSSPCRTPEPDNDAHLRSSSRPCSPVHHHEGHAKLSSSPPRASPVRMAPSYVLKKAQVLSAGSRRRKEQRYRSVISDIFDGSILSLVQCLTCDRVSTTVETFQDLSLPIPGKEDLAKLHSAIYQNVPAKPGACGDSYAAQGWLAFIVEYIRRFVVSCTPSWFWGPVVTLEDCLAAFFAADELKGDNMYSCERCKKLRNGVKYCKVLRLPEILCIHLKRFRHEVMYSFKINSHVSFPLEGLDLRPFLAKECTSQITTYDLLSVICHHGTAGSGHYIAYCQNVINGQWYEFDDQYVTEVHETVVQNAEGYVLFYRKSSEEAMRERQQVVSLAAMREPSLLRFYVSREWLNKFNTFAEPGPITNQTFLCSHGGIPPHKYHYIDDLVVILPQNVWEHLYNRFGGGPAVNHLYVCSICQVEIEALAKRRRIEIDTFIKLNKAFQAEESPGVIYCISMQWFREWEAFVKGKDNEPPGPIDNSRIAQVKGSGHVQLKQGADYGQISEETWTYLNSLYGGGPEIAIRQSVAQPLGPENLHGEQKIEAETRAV
Chain of UniProt Q70CQ1 (whole entry, looked up): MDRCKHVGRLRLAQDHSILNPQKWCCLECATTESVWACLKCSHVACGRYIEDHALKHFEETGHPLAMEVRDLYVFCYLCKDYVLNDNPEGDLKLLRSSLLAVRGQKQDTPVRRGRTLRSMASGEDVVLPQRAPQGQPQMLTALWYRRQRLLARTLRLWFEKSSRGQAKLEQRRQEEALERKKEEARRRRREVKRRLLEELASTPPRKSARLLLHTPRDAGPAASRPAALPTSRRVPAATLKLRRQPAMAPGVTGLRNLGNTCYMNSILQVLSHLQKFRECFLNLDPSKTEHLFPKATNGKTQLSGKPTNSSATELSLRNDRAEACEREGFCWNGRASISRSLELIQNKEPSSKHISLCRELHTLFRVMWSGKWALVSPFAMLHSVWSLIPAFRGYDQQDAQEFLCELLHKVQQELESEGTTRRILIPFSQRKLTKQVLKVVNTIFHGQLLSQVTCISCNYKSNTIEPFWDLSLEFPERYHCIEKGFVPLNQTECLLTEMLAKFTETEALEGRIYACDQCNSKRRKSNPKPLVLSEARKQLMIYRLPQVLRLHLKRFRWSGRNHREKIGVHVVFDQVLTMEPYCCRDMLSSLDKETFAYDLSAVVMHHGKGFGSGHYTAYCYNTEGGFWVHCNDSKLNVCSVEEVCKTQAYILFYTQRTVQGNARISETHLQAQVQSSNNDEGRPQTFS
Chain of UniProt P11509 (whole entry, looked up): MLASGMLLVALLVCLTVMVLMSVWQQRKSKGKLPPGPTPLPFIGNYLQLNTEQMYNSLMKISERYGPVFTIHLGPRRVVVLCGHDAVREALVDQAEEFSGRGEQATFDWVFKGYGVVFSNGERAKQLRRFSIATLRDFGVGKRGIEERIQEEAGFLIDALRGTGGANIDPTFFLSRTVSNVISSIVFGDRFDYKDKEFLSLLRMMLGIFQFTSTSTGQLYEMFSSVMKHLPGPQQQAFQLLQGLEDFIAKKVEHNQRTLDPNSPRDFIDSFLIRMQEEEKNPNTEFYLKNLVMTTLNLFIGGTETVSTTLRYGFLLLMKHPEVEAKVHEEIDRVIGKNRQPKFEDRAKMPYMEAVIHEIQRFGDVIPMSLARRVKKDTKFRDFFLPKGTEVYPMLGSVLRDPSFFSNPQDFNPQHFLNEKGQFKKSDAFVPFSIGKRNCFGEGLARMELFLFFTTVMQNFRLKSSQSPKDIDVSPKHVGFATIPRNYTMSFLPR
Chain of UniProt Q12809 (whole entry, looked up): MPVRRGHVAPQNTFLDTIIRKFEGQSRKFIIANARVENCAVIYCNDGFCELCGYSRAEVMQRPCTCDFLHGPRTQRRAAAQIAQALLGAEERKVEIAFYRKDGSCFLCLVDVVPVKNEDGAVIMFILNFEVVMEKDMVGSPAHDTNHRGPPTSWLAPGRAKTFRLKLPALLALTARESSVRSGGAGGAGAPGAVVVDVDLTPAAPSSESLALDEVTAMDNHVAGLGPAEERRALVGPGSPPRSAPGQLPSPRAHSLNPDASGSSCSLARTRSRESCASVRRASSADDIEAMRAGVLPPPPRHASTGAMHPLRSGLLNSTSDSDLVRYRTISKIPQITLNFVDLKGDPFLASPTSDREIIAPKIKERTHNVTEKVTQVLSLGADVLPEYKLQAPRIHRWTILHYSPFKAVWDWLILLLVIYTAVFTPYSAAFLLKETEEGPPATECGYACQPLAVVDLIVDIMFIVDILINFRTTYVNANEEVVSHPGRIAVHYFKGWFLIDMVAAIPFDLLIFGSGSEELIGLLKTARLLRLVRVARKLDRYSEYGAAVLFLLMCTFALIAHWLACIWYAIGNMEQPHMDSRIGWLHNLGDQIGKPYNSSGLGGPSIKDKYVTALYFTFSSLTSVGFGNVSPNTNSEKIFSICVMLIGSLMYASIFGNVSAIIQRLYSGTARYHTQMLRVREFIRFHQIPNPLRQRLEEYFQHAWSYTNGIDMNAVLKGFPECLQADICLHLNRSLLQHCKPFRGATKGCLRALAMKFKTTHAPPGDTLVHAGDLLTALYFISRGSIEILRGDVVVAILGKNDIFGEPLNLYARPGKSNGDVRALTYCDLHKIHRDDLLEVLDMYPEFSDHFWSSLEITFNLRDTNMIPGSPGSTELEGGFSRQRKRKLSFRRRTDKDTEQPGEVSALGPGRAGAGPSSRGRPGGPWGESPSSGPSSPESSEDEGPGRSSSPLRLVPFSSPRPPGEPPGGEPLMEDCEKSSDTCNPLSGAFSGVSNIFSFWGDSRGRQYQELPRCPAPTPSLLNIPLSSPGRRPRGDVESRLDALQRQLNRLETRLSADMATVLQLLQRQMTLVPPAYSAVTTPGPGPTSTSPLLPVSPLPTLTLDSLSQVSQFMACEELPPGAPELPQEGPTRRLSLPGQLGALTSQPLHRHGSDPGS

COc1ccc(F)cc1C(=O)NCc1ccc(-c2nn([C@@H](C)C(F)(F)F)c(N)c2C(N)=O)cc1  AUC(0-inf) (CYP3A4; human, both sexes, plasma; oral, 200 mg, single dose, with: rifampin): 23600 ng·h/mL
O=C(O)Cn1cnc2c(oc3ccccc32)c1=O  Kd (Ubiquitin carboxyl-terminal hydrolase 49, ZnF-UBD domain (USP49, Homo sapiens, UniProt Q70CQ1)): > 1000 µM
COc1ccc2c3c([nH]c2c1)[C@H](CC(C)C)N1C(=O)[C@H](CC(=O)NC(C)C)NC(=O)[C@@H]1C3  inhibition (ABCG2; inhibitor, refers to: protoporphyrin IX; A549; 0.05 µM, 2 h, with: 1 mM ALA): 35.3% and -3.04% and -1.12% and 29.7%
COc1cc(O)c(CC=C(C)C)c2c1C(=O)CC(c1ccc(O)cc1)O2 (stereo not shown)  inhibition (CYP3A4 (human); enzyme activity, inhibitor; human liver microsomes; 1 µM, pH 7.4, with: midazolam): < 10%
CC[C@H]1[C@@H](O)[C@@H]2[C@H](CC[C@]3(C)[C@@H]([C@H](C)CCNC(=O)NS(=O)(=O)c4ccc(C(C)(C)C)cc4)CC[C@@H]23)[C@@]2(C)CC[C@@H](O)C[C@@H]12  AUC(0-t) geometric mean (CYP3A4; human, plasma; 10 mg, day 1, compound alone): 386 ng·h/mL
O=C(O)Cn1cc2ccccc2n1  Kd (Ubiquitin carboxyl-terminal hydrolase 20, ZnF-UBD domain (USP20, Homo sapiens, UniProt Q9Y2K6)): 715 µM
[H]/N=C(/N)c1ccc(NCc2nc3cc(C(=O)N(CCC(=O)O)c4ccccn4)ccc3n2C)cc1  AUCinf ratio (P-glycoprotein; substrate; healthy human, plasma; oral, adjusted geometric mean, with: vepdegestrant; relative to: with vepdegestrant over alone): 198%
Cc1cc(/C=C/C#N)cc(C)c1Nc1ccnc(Nc2ccc(C#N)cc2)n1  inhibition (Voltage-gated inwardly rectifying potassium channel KCNH2 (KCNH2, Homo sapiens, UniProt Q12809); hERG current, manual patch clamp; CHO stably expressing hERG; 0.1 µM): 3.6%
COc1cc(O)c(CC=C(C)C)c(O)c1C(=O)/C=C/c1ccc(O)cc1  inhibition (CYP3A4 (human); enzyme activity, inhibitor; human liver microsomes; 1 µM, pH 7.4, with: midazolam): < 10%
C[C@]12CCCN1CC1=NNC(=O)c3cc(F)cc4[nH]c2c1c34  uptake rate (ABCG2; substrate; membrane vesicles; 5 µM, with: AMP): 1.06 ± 0.276 pmol/min/mg
Nc1ncnc2c1ncn2[C@H]1C[C@H](O)[C@@H](CO)O1  z-scored log2 fold change (binding, equilibrium dialysis LC-MS; 5 µM, thermostabilized A2AR-BRIL construct; relative to: no-protein control, direction not given): 0.508
N#C[C@H](C[C@@H]1CCCNC1=O)NC(=O)[C@H](CC1CC1)NC(=O)c1cc2cccc(Cl)c2[nH]1  fraction metabolised (Cytochrome P450 2A6 (CYP2A6, Homo sapiens, UniProt P11509); ISEF abundance scaling; 2 µM, pH 7.4): < 1%
CC(C)c1nc(N(C)S(C)(=O)=O)nc(-c2ccc(F)cc2)c1/C=C/[C@@H](O)C[C@@H](O)CC(=O)O  Papp (A to B) (ABCG2; substrate; Caco-2; 5 µM, 2 h, with: Ko143 5 µM): 0.36 ± 0.03 ×10⁻⁶ cm/s
